{"data": "Assay results pooled from the literature", "note": "A part holds a random share of what one study measured."}
{"data": "Sample 1", "target": "Histone acetyltransferase KAT6A, winged helix 1, GST fusion (KAT6A, Homo sapiens, UniProt Q92794, residues 1-85)", "technique": "protein binding microarray", "molecule type": "double-stranded DNA, one strand shown", "sample": "in vitro", "tested at": "not given", "setting": "8-mer, flanks averaged, mean of 2 arrays, mostly near background", "reference": "not given", "direction": "higher = stronger binding", "Construct (chain)": "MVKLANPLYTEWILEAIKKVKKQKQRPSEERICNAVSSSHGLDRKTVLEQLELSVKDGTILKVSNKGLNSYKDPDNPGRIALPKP"}
{"Sequence": "AGAAACGA", "E-score": -0.21}
{"Sequence": "CGCCCTTC", "E-score": 0.135}
{"Sequence": "AGTGACGA", "E-score": -0.237}
{"Sequence": "AGCCCGAG", "E-score": 0.08}
{"Sequence": "CCTGAGGA", "E-score": -0.115}
{"Sequence": "CCTAATAA", "E-score": -0.0999}
{"Sequence": "CGCTGCTC", "E-score": 0.0454}
{"data": "Sample 2", "target": "Sal-like protein 4, full length isoform B (SALL4, Homo sapiens, UniProt Q9UJQ4-2, residues 1-616)", "technique": "universal PBM", "molecule type": "double-stranded DNA, one strand shown", "sample": "in vitro", "tested at": "not given", "setting": "8-mer, flanks averaged, mean of replicates", "direction": "higher = stronger binding", "Construct (chain)": "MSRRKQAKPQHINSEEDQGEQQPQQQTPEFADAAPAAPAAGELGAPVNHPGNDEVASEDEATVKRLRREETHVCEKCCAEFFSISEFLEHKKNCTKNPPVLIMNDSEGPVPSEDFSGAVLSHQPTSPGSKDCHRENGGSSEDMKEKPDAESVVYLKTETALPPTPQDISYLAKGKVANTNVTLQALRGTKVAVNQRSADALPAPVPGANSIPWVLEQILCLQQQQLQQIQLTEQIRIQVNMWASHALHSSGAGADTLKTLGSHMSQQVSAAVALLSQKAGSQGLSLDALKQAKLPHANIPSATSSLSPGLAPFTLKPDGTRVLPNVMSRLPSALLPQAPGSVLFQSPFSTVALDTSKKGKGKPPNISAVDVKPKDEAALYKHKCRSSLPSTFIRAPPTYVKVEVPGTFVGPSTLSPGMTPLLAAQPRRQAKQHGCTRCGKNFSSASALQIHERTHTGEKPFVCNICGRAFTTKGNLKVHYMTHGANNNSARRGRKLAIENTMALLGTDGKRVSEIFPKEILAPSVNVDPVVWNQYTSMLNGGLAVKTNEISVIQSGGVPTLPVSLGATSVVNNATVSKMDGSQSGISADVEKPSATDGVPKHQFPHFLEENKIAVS"}
{"Sequence": "AAGTCGAC", "E-score": 0.124}
{"Sequence": "ACCACCCC", "E-score": -0.191}
{"Sequence": "AGTCAGGA", "E-score": -0.147}
{"Sequence": "AGGGACGC", "E-score": -0.262}
{"Sequence": "AGTGCTAA", "E-score": -0.0319}
{"Sequence": "AGCGAAAC", "E-score": -0.043}
{"Sequence": "ACTCACAA", "E-score": 0.16}
{"Sequence": "CATTTCCG", "E-score": 0.0912}
{"data": "Sample 3", "target": "Ras GTPase-activating protein-binding protein 1, full length (G3BP1, Homo sapiens, UniProt Q13283)", "technique": "RNA Bind-n-Seq", "molecule type": "RNA", "sample": "in vitro", "tested at": "200 nM", "setting": "whole 134-nt RNA, ends assumed", "together with": "150 mM LiCl", "reference": "input library", "direction": "higher = stronger binding", "all molecules": "7-deaza-guanosine replaces G", "constant ends, left off below": "GGGAGUUCUACAGUCCGACGAUC … UGGAAUUCUCGGGUGUCAAGG", "chain of UniProt Q13283 (whole entry, looked up)": "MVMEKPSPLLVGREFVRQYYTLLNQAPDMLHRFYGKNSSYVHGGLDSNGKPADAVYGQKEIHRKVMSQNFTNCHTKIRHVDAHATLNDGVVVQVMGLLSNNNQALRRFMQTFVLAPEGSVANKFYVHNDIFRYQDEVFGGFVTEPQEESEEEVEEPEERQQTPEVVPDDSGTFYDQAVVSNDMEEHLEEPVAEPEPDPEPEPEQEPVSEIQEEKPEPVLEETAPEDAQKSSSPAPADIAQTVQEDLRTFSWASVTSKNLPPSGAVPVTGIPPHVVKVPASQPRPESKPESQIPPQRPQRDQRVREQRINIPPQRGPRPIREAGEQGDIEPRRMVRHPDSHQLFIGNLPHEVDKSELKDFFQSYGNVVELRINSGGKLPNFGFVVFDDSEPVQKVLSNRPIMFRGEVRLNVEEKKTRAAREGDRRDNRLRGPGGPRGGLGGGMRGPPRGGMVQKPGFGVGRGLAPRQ"}
{"Sequence": "AGUCCUGUGCUACACAUCGUAUGUACCGAAUCGGGAAAAAGGAAAAAGGAAAAAGGGGAAAGUAUUAUGUUACGCCGUUCGGAUCUGCAC", "log2 enrichment": -0.321}
{"Sequence": "CCUCAAGUCCUGUGCUACACAUCGUAUGUACCGAAUCGGAAGGAAGGAAGGGGAAAGUAUUAUGUUACGCCGUUCGGAUCUGCACUUCCA", "log2 enrichment": -0.208}
{"Sequence": "CUCAAGUCCUGUGCUACACAUCGUAUGUACCGAAUCGGGAAAGGGAGGGUGGGAAAGUAUUAUGUUACGCCGUUCGGAUCUGCACUUCCA", "log2 enrichment": 0.0257}
{"Sequence": "ACCAUGCAGGUGGGCAUCUUUGGGAAGUGGGGCAAGGGGGGGAUAGGGAGGGGGGUAACACUUUGGGAACAGGUGGUCCCAGGUCGUUUU", "log2 enrichment": 0.177}
{"Sequence": "AGUCCUGUGCUACACAUCGUAUGUACCGAAUCGGGGUGGGGAAAGGGGUUUUUGGGGAAAGUAUUAUGUUACGCCGUUCGGAUCUGCACU", "log2 enrichment": -0.0828}
{"Sequence": "UAACUUUAGAGGAGGAUCUGAUGGAUAUGGCAGUGGACGUGGAUUUGGGGAUGGCUAUAAUGGGUAUGGAGGCGGACCUGGAGGUGGCAA", "log2 enrichment": -0.169}
{"Sequence": "AGUCCUGUGCUACACAUCGUAUGUACCGAAUCGGGGUGGGGAAAGGGGAAAAAGGGGAAAGUAUUAUGUUACGCCGUUCGGAUCUGCACU", "log2 enrichment": 0.391}
{"Sequence": "UCCUGUGCUACACAUCGUAUGUACCGAAUCGGGAAAGGGAAAAAAAGGGAAAAAAAGGGAAAGUAUUAUGUUACGCCGUUCGGAUCUGCA", "log2 enrichment": 0.536}
{"Sequence": "CUGUGCUACACAUCGUAUGUACCGAAUCGGGGAAAAAAGGGGAAAAAAGGGGAAAAAAGGGGAAAGUAUUAUGUUACGCCGUUCGGAUCU", "log2 enrichment": 0.749}
{"data": "Single results of other studies"}
{"Substance": "PhoQ, residues 284 288 289 292 302 303 NLGVHL", "target": "PhoP, residues 12 14 15 18 19 TQCLL (Escherichia coli, UniProt P23836)", "assay": "Sort-seq, measured: YFP reporter", "system": "E. coli", "conditions": "PhoQ-PhoP variant library, together with: 10 µM Mg2+", "how to read": "reference: high Mg2+ state, higher = stronger signaling", "endpoint": "fold induction", "value": 2.17}
{"note": "Some of these lines once more (sample 3):"}
{"Sequence": "UCCUGUGCUACACAUCGUAUGUACCGAAUCGGGAAAGGGAAAAAAAGGGAAAAAAAGGGAAAGUAUUAUGUUACGCCGUUCGGAUCUGCA", "log2 enrichment": 0.536}
{"Sequence": "AGUCCUGUGCUACACAUCGUAUGUACCGAAUCGGGAAAAAGGAAAAAGGAAAAAGGGGAAAGUAUUAUGUUACGCCGUUCGGAUCUGCAC", "log2 enrichment": -0.321}
{"Sequence": "ACCAUGCAGGUGGGCAUCUUUGGGAAGUGGGGCAAGGGGGGGAUAGGGAGGGGGGUAACACUUUGGGAACAGGUGGUCCCAGGUCGUUUU", "log2 enrichment": 0.177}
{"Sequence": "UAACUUUAGAGGAGGAUCUGAUGGAUAUGGCAGUGGACGUGGAUUUGGGGAUGGCUAUAAUGGGUAUGGAGGCGGACCUGGAGGUGGCAA", "log2 enrichment": -0.169}
